Measurements gathered from unrelated publications.
Every numbered part comes from another study and shows a few of its results, in no order.

Block 1
Target: Centromere-binding protein 1, full length, His-tagged (CBF1, Saccharomyces cerevisiae, UniProt P17106, residues 1-351)
Chain of UniProt P17106 (whole entry, looked up): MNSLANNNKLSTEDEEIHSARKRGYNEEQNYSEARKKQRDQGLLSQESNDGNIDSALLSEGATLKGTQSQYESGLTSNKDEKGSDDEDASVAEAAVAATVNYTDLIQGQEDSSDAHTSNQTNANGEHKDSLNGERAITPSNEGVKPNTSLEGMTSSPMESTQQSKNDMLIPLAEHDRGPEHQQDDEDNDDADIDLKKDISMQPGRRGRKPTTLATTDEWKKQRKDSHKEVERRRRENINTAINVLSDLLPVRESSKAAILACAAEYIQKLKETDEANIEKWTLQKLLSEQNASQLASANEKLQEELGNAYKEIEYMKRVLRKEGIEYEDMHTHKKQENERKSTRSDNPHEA
Technique: competition protein-binding microarray
Molecule type: double-stranded DNA, one strand shown
Medium: in vitro
Concentration: 2 µM
Setting: whole 60-bp probe, lowest competitor level
Together with: Pho4 competitor, 0.05 µM
Reading: higher = stronger binding
Oligonucleotide	fluorescence intensity [a.u.]
AAAGCGGTAATTTGTCACGCTACTTCACATATCTATGTCTTGATTCGCTTGACGCTGCTG	280
CTTCTGTAAATTTGTTTGGTGGGTGGACGCGCCCCGGTCTTGATTCGCTTGACGCTGCTG	87.6
AGCATATCCGCTGTTCACATGATACGGTCTAGGATTGTCTTGATTCGCTTGACGCTGCTG	282

Block 2
Target: Histone acetyltransferase KAT6A, winged helix 1, GST fusion (KAT6A, Homo sapiens, UniProt Q92794, residues 1-85)
Technique: protein binding microarray
Molecule type: double-stranded DNA, one strand shown
Medium: in vitro
Concentration: not given
Setting: 8-mer, flanks averaged, mean of 2 arrays, mostly near background
Baseline: not given
Reading: higher = stronger binding
Target sequence (chain): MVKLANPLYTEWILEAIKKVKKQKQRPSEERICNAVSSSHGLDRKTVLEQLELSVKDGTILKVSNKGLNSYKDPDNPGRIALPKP
Oligonucleotide	E-score
AGCCTTAG	-0.222
CGGAACAC	0.153
ATCCTGCG	0.0293
GTGAAGAA	-0.185
AGTGTGAG	-0.206

Block 3
Target: Interferon regulatory factor 7, full length, phosphomimetic (IRF7, Homo sapiens, UniProt Q92985, residues 1-503, S471D/S472D/S475D/S476D/S477D/S483D/S484D/S487D)
Technique: protein-binding microarray
Molecule type: double-stranded DNA, one strand shown
Medium: in vitro
Concentration: 2200 nM top
Setting: 60-bp whole probe
Together with: salmon DNA 0.4 mg/ml
Baseline: random background probes
Reading: higher = stronger binding
Residues (chain): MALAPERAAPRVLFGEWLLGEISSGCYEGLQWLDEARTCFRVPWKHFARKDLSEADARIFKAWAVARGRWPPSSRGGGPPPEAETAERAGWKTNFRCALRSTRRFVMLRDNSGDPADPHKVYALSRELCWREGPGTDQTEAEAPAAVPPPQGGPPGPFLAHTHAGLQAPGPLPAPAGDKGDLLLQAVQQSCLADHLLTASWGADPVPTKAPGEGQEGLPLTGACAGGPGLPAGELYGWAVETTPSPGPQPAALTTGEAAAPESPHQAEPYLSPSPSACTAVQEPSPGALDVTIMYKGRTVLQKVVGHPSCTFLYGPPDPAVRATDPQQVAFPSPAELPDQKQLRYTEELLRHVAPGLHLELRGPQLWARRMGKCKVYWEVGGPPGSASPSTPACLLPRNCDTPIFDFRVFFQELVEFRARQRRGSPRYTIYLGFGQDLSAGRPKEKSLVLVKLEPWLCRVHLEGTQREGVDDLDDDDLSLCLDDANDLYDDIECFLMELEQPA
Oligonucleotide	fitted relative affinity
GCCTAGCACTCACTCATACATCTGGGACTGTGCTAGGTCTTGATTCGCTTGACGCTGCTG	0.774 z-score
GCCTAGCACTCATGTCTCTGGCCTGGGACTGTGCTAGTCTTGATTCGCTTGACGCTGCTG	0.334 z-score
GCCTAGCACTTGCTTTCCTTCTTGAACTCGTGCTAGGTCTTGATTCGCTTGACGCTGCTG	3.59 z-score
GCCTAGCACTACTACATATCACCTCAATCGTGCTAGGTCTTGATTCGCTTGACGCTGCTG	1.57 z-score

Other studies, line by line
Molecule	target	assay	test system	setting	scale	endpoint	value
PhoQ, residues 284 288 289 292 302 303 SNSSNI	PhoP, residues 12 14 15 18 19 HLGGL (Escherichia coli, UniProt P23836)	Sort-seq, item: YFP reporter	E. coli	PhoQ-PhoP variant library, together with: 10 µM Mg2+	baseline: high Mg2+ state, higher = stronger signaling	fold induction	1.39

Excerpt of the above (block 2):
Oligonucleotide	E-score
AGTGTGAG	-0.206
